Measured values gathered from unrelated publications.
Each line is one published result; not all experiments were run side by side. ± gives the spread as reported.
Aryl hydrocarbon receptor: Aryl hydrocarbon receptor (Danio rerio, UniProt Q9YGV3)
Chain of UniProt Q9Y653 (whole entry, unmodified, looked up): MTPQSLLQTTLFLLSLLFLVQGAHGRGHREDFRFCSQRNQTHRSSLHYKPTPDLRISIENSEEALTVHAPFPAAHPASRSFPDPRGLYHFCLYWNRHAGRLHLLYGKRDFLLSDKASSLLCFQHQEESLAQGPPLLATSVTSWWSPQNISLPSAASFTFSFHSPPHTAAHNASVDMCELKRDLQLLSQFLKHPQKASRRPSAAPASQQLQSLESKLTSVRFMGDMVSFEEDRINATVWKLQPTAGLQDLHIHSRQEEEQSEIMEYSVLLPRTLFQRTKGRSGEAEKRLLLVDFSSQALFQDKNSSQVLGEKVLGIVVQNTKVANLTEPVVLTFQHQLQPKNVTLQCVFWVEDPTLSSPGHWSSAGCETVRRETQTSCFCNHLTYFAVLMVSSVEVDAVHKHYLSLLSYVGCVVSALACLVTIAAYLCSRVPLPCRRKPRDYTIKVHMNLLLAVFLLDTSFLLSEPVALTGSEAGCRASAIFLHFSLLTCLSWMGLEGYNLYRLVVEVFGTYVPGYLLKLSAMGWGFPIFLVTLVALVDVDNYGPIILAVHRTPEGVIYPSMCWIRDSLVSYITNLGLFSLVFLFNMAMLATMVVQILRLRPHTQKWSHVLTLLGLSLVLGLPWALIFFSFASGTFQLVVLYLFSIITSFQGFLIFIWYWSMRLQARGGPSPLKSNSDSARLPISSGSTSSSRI
Chain of UniProt P00519 (whole entry, unmodified, looked up): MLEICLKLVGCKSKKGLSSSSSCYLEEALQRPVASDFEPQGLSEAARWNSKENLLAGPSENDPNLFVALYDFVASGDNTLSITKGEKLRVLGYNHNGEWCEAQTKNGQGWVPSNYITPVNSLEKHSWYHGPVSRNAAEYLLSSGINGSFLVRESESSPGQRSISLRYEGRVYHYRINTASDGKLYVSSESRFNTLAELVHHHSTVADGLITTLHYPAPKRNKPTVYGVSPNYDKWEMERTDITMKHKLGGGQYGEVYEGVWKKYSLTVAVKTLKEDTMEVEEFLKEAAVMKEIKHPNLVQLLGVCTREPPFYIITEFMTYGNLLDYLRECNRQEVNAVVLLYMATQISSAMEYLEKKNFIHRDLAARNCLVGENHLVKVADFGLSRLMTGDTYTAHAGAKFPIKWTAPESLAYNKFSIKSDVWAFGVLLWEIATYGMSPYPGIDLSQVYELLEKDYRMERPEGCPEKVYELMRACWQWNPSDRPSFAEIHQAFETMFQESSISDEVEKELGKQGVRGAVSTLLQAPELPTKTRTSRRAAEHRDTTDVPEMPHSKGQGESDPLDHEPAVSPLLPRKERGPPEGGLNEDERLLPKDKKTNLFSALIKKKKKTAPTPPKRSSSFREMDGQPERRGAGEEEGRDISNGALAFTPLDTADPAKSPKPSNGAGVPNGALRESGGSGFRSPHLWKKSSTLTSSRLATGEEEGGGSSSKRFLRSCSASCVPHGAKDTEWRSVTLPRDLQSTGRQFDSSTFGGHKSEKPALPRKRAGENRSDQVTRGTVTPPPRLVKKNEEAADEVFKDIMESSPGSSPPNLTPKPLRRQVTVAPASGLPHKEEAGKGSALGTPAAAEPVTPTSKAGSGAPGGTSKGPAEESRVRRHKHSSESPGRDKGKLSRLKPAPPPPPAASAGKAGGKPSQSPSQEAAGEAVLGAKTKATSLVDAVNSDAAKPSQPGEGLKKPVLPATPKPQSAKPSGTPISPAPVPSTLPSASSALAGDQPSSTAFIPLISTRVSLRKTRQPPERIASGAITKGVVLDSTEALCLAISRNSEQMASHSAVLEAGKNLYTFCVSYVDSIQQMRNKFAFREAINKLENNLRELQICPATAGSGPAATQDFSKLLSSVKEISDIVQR
Chain of UniProt Q96PN8 (whole entry, looked up): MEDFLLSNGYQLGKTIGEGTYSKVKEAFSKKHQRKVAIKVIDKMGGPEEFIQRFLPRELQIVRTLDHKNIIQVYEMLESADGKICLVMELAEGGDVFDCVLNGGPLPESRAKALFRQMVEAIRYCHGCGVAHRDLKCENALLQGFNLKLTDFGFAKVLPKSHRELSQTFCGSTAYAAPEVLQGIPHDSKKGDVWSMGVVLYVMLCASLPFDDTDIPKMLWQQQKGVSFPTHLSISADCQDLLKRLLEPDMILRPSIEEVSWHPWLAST
Chain of UniProt Q01105 (whole entry, unmodified, looked up): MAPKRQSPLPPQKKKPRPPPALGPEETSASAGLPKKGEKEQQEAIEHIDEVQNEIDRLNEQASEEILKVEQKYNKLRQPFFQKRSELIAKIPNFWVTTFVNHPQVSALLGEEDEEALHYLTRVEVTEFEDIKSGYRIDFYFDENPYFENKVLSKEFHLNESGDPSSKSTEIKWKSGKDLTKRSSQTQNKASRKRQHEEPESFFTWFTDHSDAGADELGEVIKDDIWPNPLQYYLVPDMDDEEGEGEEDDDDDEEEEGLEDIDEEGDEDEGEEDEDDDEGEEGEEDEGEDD
Chain of UniProt Q9UBN7 (whole entry, looked up): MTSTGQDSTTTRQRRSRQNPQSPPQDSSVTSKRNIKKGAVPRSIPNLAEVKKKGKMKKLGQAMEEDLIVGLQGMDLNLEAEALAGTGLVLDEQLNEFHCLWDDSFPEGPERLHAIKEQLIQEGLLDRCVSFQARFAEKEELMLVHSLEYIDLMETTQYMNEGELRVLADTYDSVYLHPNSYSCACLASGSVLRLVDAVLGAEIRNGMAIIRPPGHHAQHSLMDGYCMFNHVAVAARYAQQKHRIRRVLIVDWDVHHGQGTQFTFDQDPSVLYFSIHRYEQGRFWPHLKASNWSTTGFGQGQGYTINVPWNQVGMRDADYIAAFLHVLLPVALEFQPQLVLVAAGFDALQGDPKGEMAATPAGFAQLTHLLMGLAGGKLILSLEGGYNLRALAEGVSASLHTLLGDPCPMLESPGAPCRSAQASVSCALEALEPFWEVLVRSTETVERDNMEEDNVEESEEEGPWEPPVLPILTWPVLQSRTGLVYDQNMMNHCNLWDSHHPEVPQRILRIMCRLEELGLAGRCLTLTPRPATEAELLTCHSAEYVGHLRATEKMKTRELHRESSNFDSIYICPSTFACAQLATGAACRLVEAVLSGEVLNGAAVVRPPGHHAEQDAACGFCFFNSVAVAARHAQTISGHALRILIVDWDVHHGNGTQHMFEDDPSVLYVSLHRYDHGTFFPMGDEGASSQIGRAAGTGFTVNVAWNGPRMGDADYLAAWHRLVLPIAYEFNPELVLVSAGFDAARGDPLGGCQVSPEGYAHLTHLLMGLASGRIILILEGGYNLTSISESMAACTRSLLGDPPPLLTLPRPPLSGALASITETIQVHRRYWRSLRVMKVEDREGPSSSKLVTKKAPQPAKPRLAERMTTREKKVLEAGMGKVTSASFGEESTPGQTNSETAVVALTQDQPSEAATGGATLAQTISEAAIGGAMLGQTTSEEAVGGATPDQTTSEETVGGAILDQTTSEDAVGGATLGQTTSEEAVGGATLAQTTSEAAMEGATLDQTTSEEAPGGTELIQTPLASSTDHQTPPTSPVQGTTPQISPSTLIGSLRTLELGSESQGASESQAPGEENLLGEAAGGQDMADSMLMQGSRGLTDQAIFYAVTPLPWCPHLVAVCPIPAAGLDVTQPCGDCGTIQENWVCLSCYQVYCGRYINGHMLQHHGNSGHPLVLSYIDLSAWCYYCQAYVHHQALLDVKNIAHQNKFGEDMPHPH
Chain of UniProt Q9UJQ4 (whole entry, looked up): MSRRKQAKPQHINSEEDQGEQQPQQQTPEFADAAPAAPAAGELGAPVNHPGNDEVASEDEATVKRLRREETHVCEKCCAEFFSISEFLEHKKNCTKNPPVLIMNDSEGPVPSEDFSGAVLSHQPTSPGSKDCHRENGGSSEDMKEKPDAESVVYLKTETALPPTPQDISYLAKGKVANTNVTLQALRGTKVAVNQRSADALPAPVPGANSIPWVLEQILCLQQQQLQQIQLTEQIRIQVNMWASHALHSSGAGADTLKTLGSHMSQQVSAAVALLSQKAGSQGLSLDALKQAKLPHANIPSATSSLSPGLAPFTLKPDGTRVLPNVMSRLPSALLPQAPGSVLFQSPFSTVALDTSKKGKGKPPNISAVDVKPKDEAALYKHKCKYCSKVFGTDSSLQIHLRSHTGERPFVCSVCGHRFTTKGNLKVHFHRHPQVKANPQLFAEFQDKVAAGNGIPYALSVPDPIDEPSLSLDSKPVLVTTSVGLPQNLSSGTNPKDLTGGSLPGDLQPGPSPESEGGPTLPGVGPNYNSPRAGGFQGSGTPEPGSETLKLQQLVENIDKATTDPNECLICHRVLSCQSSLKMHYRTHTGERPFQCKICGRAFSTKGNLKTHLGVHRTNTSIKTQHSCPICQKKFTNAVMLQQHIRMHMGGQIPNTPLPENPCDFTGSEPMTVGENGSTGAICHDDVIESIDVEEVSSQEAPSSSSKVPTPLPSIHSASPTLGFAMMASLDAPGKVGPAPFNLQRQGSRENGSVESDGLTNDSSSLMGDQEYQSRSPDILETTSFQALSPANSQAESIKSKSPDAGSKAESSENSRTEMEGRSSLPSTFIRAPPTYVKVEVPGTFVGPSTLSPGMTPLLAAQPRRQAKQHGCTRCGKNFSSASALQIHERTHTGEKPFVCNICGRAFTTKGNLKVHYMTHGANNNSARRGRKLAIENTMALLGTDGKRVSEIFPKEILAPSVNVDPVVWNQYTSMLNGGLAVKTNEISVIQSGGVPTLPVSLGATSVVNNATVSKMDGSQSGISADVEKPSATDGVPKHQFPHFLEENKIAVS
Chain of UniProt P0A9M5 (whole entry, looked up): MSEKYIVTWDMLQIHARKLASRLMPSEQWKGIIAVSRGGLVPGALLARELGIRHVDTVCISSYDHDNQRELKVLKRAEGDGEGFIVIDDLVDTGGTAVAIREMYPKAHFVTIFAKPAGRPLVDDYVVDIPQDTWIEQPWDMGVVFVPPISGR

For `Cc1ccc(N(C)C(=O)/C=C/c2ccco2)cc1`, potentiation EC50 read “inactive” (Nicotinic acetylcholine receptor alpha9/alpha10 (Rattus norvegicus, UniProt P43144+Q9JLB5); positive allosteric modulator; rat α9α10 expressing cells; together with: ACh 100 µM).
For `O=C(c1ccc(C(=O)N2CCC(N3CCCC3)CC2)c(Nc2ccccc2)c1)N1CCC(N2CCCC2)CC1`, the diffusion coefficient was 0.284 µm2/s (Lethal(3)malignant brain tumor-like protein 3, MBT domains (Homo sapiens, UniProt Q96JM7); FRAP; human cells; 1 µM).
With `Cc1ccc(N2CC(C(N)=O)CC2=O)cc1` (stereo not drawn) the fold enrichment was 0.911 (Huntingtin (HTT, Homo sapiens, UniProt P42858); binding, affinity selection mass spectrometry; reference: other proteins in batch).
For `CCCCCCCCCCCCC/C=C/[C@@H](O)[C@H](CO)NC(=O)CCCCCCCCCCCCCCCCCCCCCCC`, “lipid fraction bound” read 2.8% (Protein SET (SET, Homo sapiens, UniProt Q01105, K222D); lipid binding, GFP pull-down LC-MS/MS; A549 overexpressing GFP-tagged protein; reference: eluate plus flow-through).
With `O=C1CCC(N2C(=O)c3ccccc3C2=O)C(=O)N1` (stereo not drawn) the Dmax was 68 ± 6% (Sal-like protein 4 (SALL4, Homo sapiens, UniProt Q9UJQ4); degrader; C33A).
`N#Cc1ccc(C(=O)Nc2cccc3[nH]ccc23)cc1` — result for fibril formation: “inhibited” (Alpha-synuclein (SNCA, Homo sapiens, UniProt P37840); ThT kinetics; concentration not given, together with: SNCA 2 µM).
With `O=C(c1ccc(Nc2nccc(-c3ccc(Cl)s3)n2)cc1)N1CCC(N2CCCC2)CC1` the ligand efficiency was 0.3 (Protein kinase 6 (Plasmodium falciparum, UniProt Q8IDW1); binding, KinaseSeeker split luciferase).
`CC1=C(C(=O)OC(C)C)C(c2ccccc2Br)C2=C(CC(C)(C)CC2=O)N1` (stereo not drawn) — result for “potency relative to reference”: about 40% (ADGRG1 (Homo sapiens, UniProt Q9Y653); agonist, GTPγS binding reconstitution; together with: G13; reference: 3-α-DOG).
With `C=CC(=O)N1CCC(COCC(=O)N2CCN(c3nc(-c4cnc(N)nc4C(F)F)nc(N4CCOC[C@@H]4C)n3)CC2)CC1` the remaining binding was 100% (TSSK3 (Homo sapiens, UniProt Q96PN8); KINOMEscan; 1 µM).
The fold change of `CN1C(=O)/C(=C2\Nc3ccccc3\C2=N/O)c2ccc(Br)cc21` is reported as 23.8 (Aryl hydrocarbon receptor; reporter gene, agonist, luciferase reporter; ZF-4; 4 µM; reference: vehicle control).
With `O=C(COc1ccc(C2CCC(=O)NC2=O)cc1)NCCCCCCN1CCc2c(c3ccccc3n2Cc2ccc(C(=O)NO)cc2)C1` (stereo not drawn) the degradation was 89% (HDAC6 (Homo sapiens, UniProt Q9UBN7); degrader, western blot; MM1.S; 1 µM, 24 h).
The fraction bound of `O=C(O)C1CCCNC1` (stereo not drawn) is reported as 0.00229 (SLC6A6 (Homo sapiens, UniProt P31641, Y138A); binding, microscale thermophoresis; 46.3 nM, fitted curve; higher = more binding).
`Cc1cccc2c1ccc1cc(C(C)C)ccc12` gave a fold change of 0.98 (Aryl hydrocarbon receptor; reporter gene, agonist, luciferase reporter; ZF-4; 1.524 µM; reference: vehicle control).
With `C[C@H]1CCN(c2nccc(-c3cnn4ncccc34)n2)C1` the remaining binding was 98% (ABL1 (Homo sapiens, UniProt P00519, T315I); 1 µM; reference: control).
For `Nc1nc2c(ncn2[C@@H]2O[C@H](COP(=O)(O)OP(=O)(O)O)[C@@H](OP(=O)(O)OP(=O)(O)O)[C@H]2O)c(=O)[nH]1`, the binding stoichiometry was 1.02 ± 0.002 (Xanthine-guanine phosphoribosyltransferase (Escherichia coli, UniProt P0A9M5); ITC; concentration not given).
